Assay results from different studies.
Protocols differ between the studies behind these lines. “And” joins repeats or separate records; there may be more than shown.

O=C1Nc2ccc3ncsc3c2/C1=C/c1cnc[nH]1 — inhibition (HeLa expressing Ub(G76V)-GFP; Ub(G76V)-GFP degradation, cycloheximide chase; 12 µM): 13%
CN1CCN(C2(CNC3CCN(c4cccc(-c5cc6cc(F)ccc6[nH]5)c4)CC3)CCC2)CC1 — CC50 (NCI-H23): 6.2 µM
O=c1cc(-c2ccccc2)oc2c(O)c(O)ccc12 — total neurite length (induced SH-SY5Y Aβ-GFP cells; 5 µM): 31.8 to 34 µm
CS(=O)(=O)c1ccc(-c2nnc(/C=C/c3nnc(-c4ccc(C#N)cc4)o3)n2-c2ccccc2Cl)nc1 — EC50 (Apc Q1405X mutant organoids; organoid area, live-cell imaging; mouse small intestinal organoids; 6 days, Tnks1 genotype Tnks1+/+): 0.0864 µM
CC[C@H](C)[C@H](NC(=O)CN)C(=O)NCC(=O)N[C@@H](C)C(=O)N[C@H](C(=O)N[C@@H](CC(C)C)C(=O)N[C@@H](CCCCN)C(=O)N[C@H](C(=O)N[C@@H](CC(C)C)C(=O)N[C@H](C(=O)N[C@H](C(=O)NCC(=O)N[C@@H](CC(C)C)C(=O)N1CCC[C@H]1C(=O)N[C@@H](C)C(=O)N[C@@H](CC(C)C)C(=O)N[C@H](C(=O)N[C@@H](CO)C(=O)N[C@@H](Cc1c[nH]c2ccccc12)C(=O)N[C@H](C(=O)N[C@@H](CCCCN)C(=O)N[C@@H](CCCNC(=N)N)C(=O)N[C@@H](CCCCN)C(=O)N[C@@H](CCCNC(=N)N)C(=O)N[C@@H](CCC(N)=O)C(=O)N[C@@H](CCC(N)=O)C(=O)N[C@@H](CS)C(N)=O)[C@@H](C)CC)[C@@H](C)CC)[C@@H](C)O)[C@@H](C)O)C(C)C)C(C)C — EC50 (human red blood cells; pH 7.4; baseline: Triton X-100): 6 µM
NCC(O)c1ccc(O)cc1 (stereo not drawn) — activity score (human iPSC-derived cardiomyocytes; MyBP-C/MYH ratio, plate-normalised SD score; concentration not given, primary screen; direction not given): 4.3
COc1cc(CCC[P+](c2ccccc2)(c2ccccc2)c2ccccc2)c(OC)c2c1OCO2.[I-] — TGI (HCT-15; SRB): > -4 log M
CC1=C(O)C(=O)C=C2C1=CC=C1[C@@]2(C)CC[C@@]2(C)[C@@H]3C[C@](C)(C(=O)O)CC[C@]3(C)CC[C@]12C — optical density (HepG2; cell viability, CCK-8; 4 µM; higher = more viable cells): 0.301 a.u. and 0.338 a.u. and 0.472 a.u. and 0.323 a.u. and 0.261 a.u.
COc1c(C)c2c(c(O)c1C/C=C(\C)CCC(=O)O)C(=O)OC2 — IC50 (Cervix cancer cell lines; cell proliferation): 1.48 µM
CC(C)N1CCC(NC2CCN(c3cccc(-c4cc5cc(F)ccc5[nH]4)c3)CC2)CC1 — CC50 (U-251): 6.11 µM
COc1ccc([C@H]2c3[nH]c4ccc(Cl)cc4c3CCN2C(=O)Oc2ccc(Cl)cc2)cc1 — inhibition (HUVEC and Th2 blast co-culture; BioMAP /TH2, item: soluble IL-17; 0.1 µM): 23%
Cn1cncc1C1=CN(c2ncnc3[nH]cnc23)CCS1 — CC50 (NCI-H322M; lung cancer): > 200 µM
CC(c1ccccc1)(c1ccc(O)cc1)c1ccc(O)cc1 — spheroid area increase (HepG2 spheroids; planimetry; 10 µM, 0 to 24 h; baseline: mean area of 72 h spheroids): 128%
N[C@@H]1C[C@H]1c1ccccc1 — viability (HBL-1; 0.5 µM, 120 h): 131%
COc1cc2c(Oc3ccc4[nH]c(C)cc4c3F)ccnc2cc1OCC1(N)CC1 — Rash incidence (paediatric recurrent refractory sarcoma; 12 mg): 18.2%
Cn1cc(C2=C(c3cn(C4CCN(Cc5ccccn5)CC4)c4ccccc34)C(=O)NC2=O)c2ccccc21 — beat amplitude (iCell Cardiomyocytes (hiPSC-derived); xCELLigence Cardio impedance; concentration not given, 2 h; baseline: control): 92.7%
CN1CCN(S(=O)(=O)c2cc([N+](=O)[O-])ccc2N(CCOS(C)(=O)=O)CCOS(C)(=O)=O)CC1 — IC50 (sample DB T-ALL PDX cells; cell viability; ex vivo; 48 h, added: AKR1C3 inhibitor 1 µM, 1 h pretreatment): 3.63 µM
COc1c(CCC[P+](c2ccccc2)(c2ccccc2)c2ccccc2)cc2c(c1OC)OCO2.[I-] — GI50 (NCI-H522; SRB): -5.76 log M

For quick reference, copied from above:
Cn1cc(C2=C(c3cn(C4CCN(Cc5ccccn5)CC4)c4ccccc34)C(=O)NC2=O)c2ccccc21 — beat amplitude (iCell Cardiomyocytes (hiPSC-derived); xCELLigence Cardio impedance; concentration not given, 2 h; baseline: control): 92.7%
COc1ccc([C@H]2c3[nH]c4ccc(Cl)cc4c3CCN2C(=O)Oc2ccc(Cl)cc2)cc1 — inhibition (HUVEC and Th2 blast co-culture; BioMAP /TH2, item: soluble IL-17; 0.1 µM): 23%
